Assay results pooled from the literature.
Numbered parts are unrelated; each lists some results of a single study. Several values in a cell are separate wells, animals, samples, runs or records.
UniProt Q15375, sequence (whole entry, looked up): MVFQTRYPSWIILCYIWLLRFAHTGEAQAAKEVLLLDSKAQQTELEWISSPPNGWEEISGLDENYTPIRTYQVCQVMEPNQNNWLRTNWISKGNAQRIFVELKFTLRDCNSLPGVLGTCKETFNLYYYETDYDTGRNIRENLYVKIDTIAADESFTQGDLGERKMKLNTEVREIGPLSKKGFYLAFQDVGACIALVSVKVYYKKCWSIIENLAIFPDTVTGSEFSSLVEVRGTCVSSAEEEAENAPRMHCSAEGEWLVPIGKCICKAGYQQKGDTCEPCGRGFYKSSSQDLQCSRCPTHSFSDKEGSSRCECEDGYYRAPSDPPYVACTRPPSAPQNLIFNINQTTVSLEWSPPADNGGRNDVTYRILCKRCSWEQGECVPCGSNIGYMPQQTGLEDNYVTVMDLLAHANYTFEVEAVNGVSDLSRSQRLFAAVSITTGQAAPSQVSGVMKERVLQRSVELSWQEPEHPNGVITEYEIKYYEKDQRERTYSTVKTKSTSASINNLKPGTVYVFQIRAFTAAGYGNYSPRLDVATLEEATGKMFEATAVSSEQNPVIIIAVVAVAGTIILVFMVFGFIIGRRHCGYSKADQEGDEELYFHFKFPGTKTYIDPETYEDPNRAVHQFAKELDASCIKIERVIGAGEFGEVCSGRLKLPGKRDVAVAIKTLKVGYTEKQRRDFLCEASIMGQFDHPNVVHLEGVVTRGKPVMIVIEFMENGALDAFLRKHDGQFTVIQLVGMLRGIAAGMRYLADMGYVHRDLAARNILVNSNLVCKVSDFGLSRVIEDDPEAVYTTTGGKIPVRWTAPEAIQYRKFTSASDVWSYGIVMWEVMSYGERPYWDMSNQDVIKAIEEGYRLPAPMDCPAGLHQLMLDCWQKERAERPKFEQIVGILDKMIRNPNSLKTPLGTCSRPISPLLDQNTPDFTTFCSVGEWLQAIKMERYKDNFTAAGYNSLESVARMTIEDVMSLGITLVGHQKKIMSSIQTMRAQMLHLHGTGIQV
UniProt O96017, sequence (whole entry, looked up): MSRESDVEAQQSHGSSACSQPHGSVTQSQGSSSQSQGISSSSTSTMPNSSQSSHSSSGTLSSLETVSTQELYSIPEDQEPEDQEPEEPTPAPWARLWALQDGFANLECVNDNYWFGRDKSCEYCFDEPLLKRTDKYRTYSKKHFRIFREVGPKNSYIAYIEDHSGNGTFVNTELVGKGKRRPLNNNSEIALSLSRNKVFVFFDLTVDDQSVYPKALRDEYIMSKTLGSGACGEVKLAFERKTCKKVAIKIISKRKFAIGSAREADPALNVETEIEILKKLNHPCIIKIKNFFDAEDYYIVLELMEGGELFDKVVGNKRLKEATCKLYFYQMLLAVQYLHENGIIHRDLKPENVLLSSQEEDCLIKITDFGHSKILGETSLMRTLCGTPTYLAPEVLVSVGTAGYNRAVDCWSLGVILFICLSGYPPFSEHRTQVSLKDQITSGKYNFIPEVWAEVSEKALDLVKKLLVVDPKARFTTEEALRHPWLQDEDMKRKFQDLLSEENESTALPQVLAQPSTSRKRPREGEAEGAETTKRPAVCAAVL
UniProt O75676, sequence (whole entry, looked up): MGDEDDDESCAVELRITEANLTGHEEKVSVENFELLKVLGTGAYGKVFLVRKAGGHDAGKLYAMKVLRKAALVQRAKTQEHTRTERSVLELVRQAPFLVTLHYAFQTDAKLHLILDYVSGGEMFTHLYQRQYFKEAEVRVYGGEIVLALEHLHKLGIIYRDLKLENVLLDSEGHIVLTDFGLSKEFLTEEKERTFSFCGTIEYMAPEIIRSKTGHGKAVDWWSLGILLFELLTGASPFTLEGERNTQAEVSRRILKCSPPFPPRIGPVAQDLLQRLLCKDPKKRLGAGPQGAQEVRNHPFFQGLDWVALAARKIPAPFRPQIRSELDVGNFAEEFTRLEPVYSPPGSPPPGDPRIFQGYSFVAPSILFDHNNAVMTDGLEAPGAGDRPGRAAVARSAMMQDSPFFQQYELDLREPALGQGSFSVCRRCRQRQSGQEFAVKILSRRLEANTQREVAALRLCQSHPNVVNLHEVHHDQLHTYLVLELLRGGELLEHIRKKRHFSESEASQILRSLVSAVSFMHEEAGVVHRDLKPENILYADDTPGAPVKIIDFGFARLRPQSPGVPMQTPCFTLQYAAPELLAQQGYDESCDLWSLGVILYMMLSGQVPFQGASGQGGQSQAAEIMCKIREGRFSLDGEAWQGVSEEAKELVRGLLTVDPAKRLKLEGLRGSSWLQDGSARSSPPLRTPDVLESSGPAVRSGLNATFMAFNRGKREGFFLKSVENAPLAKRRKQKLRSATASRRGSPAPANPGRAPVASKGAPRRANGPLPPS

Sample 1 — read-out: enzyme activity; mode: inhibitor; tested at: 0.5 µM; reference: control; quantity: remaining activity
Compound: COc1cc2ncnc(N3CCN(C(=O)Nc4ccc(Oc5ccccc5)cc4)CC3)c2cc1OC
Tyrosine-protein kinase Lyn, isoform B (LYN, Homo sapiens, UniProt P07948): 102%
G protein-coupled receptor kinase 3 (GRK3, Homo sapiens, UniProt P35626): 106%
TGF-beta receptor type-1 (TGFBR1, Homo sapiens, UniProt P36897): 99.5%
cAMP-dependent protein kinase catalytic subunit alpha (PRKACA, Homo sapiens, UniProt P17612): 96%
TGF-beta receptor type-2 (TGFBR2, Homo sapiens, UniProt P37173): 102%
cGMP-dependent protein kinase 1, isoform beta (PRKG1, Homo sapiens, UniProt Q13976): 98.7%
Serine/threonine-protein kinase Chk2 (CHEK2, Homo sapiens, UniProt O96017): 102%
Cyclin-dependent kinase 4, with cyclin D1 (CDK4, Homo sapiens, UniProt P11802): 101%
Inhibitor of nuclear factor kappa-B kinase subunit epsilon (IKBKE, Homo sapiens, UniProt Q14164): 98.9%
Death-associated protein kinase 1 (DAPK1, Homo sapiens, UniProt P53355): 97.5%
Serine/threonine-protein kinase STK11 (STK11, Homo sapiens, UniProt Q15831): 105%
Cyclin-dependent kinase 5, with p25 (CDK5, Homo sapiens, UniProt Q00535): 77.1%
STE20/SPS1-related proline-alanine-rich protein kinase (STK39, Homo sapiens, UniProt Q9UEW8): 83.2%
Mitogen-activated protein kinase 9 (MAPK9, Homo sapiens, UniProt P45984): 88.4%
Mitogen-activated protein kinase kinase kinase 3 (MAP3K3, Homo sapiens, UniProt Q99759): 83.7%
Protein kinase C alpha type (PRKCA, Homo sapiens, UniProt P17252): 98%
Inhibitor of nuclear factor kappa-B kinase subunit beta (IKBKB, Homo sapiens, UniProt O14920): 102%
Serine/threonine-protein kinase OSR1 (OXSR1, Homo sapiens, UniProt O95747): 119%
Serine/threonine-protein kinase 10 (STK10, Homo sapiens, UniProt O94804): 97.9%
Calcium/calmodulin-dependent protein kinase kinase 2 (CAMKK2, Homo sapiens, UniProt Q96RR4): 81.6%
Protein kinase C beta type, isoform beta-I (PRKCB, Homo sapiens, UniProt P05771): 94.5%
Death-associated protein kinase 2 (DAPK2, Homo sapiens, UniProt Q9UIK4): 95%
Serine/threonine-protein kinase Nek2 (NEK2, Homo sapiens, UniProt P51955): 81.3%
Calcium/calmodulin-dependent protein kinase type II subunit delta (CAMK2D, Homo sapiens, UniProt Q13557): 70.9%

Sample 2 — read-out: cell-free assay; method: competition with immobilised ligand; tested at: 0.1 µM; quantity: remaining binding
SMILES: Cc1cc(C)c(-n2ccn3nc(-c4cccnc4)cc23)cc1NC(=O)c1cc(C#N)cc(S(F)(F)(F)(F)F)c1
Atypical kinase COQ8A, mitochondrial (COQ8A, Homo sapiens, UniProt Q8NI60): 94.5%
Serine/threonine-protein kinase Nek10 (NEK10, Homo sapiens, UniProt Q6ZWH5): 100%
Proto-oncogene tyrosine-protein kinase receptor Ret (RET, Homo sapiens, UniProt P07949, M918T): 77.1%
Serine/threonine-protein kinase Nek7 (NEK7, Homo sapiens, UniProt Q8TDX7): 75.5%
Ephrin type-A receptor 7 (EPHA7, Homo sapiens, UniProt Q15375): 92%
Receptor-type tyrosine-protein kinase FLT3 (FLT3, Homo sapiens, UniProt P36888): 100%
Glycogen synthase kinase-3 alpha (GSK3A, Homo sapiens, UniProt P49840): 100%
Tyrosine-protein kinase ABL2 (ABL2, Homo sapiens, UniProt P42684): 67.8%
Epidermal growth factor receptor (EGFR, Homo sapiens, UniProt P00533, T790M): 61.6%
Serine/threonine-protein kinase PAK 3 (PAK3, Homo sapiens, UniProt O75914): 26.1%
Epidermal growth factor receptor (EGFR, Homo sapiens, UniProt P00533, G719S): 94.8%
Serine/threonine-protein kinase/endoribonuclease IRE1 (ERN1, Homo sapiens, UniProt O75460): 68.3%
Tyrosine-protein kinase ABL1, phosphorylated (ABL1, Homo sapiens, UniProt P00519, Y253F): 68.6%
Myosin light chain kinase 2, skeletal/cardiac muscle (MYLK2, Homo sapiens, UniProt Q9H1R3): 100%
Mitogen-activated protein kinase 4 (MAPK4, Homo sapiens, UniProt P31152): 86.3%
Ribosomal protein S6 kinase alpha-1, C-terminal kinase domain (RPS6KA1, Homo sapiens, UniProt Q15418): 100%
Dual specificity testis-specific protein kinase 1 (TESK1, Homo sapiens, UniProt Q15569): 85.1%
Tyrosine-protein kinase ABL1, non-phosphorylated (ABL1, Homo sapiens, UniProt P00519, Q252H): 31.4%
Serine/threonine-protein kinase RIO3 (RIOK3, Homo sapiens, UniProt O14730): 100%
Casein kinase I isoform alpha-like (CSNK1A1L, Homo sapiens, UniProt Q8N752): 88.4%
Hepatocyte growth factor receptor (MET, Homo sapiens, UniProt P08581, M1250T): 100%
Mitogen-activated protein kinase kinase kinase 12 (MAP3K12, Homo sapiens, UniProt Q12852): 82.5%
Serine/threonine-protein kinase RIO1 (RIOK1, Homo sapiens, UniProt Q9BRS2): 100%
Epidermal growth factor receptor (EGFR, Homo sapiens, UniProt P00533, G719C): 91.6%

Sample 3 — read-out: enzyme activity; mode: inhibitor; tested at: 77 µM; reference: untreated; quantity: remaining activity
Target: DNA polymerase theta, ATPase domain (POLQ, Homo sapiens, UniProt O75417)
UniProt O75417, sequence (whole entry, unmodified, looked up): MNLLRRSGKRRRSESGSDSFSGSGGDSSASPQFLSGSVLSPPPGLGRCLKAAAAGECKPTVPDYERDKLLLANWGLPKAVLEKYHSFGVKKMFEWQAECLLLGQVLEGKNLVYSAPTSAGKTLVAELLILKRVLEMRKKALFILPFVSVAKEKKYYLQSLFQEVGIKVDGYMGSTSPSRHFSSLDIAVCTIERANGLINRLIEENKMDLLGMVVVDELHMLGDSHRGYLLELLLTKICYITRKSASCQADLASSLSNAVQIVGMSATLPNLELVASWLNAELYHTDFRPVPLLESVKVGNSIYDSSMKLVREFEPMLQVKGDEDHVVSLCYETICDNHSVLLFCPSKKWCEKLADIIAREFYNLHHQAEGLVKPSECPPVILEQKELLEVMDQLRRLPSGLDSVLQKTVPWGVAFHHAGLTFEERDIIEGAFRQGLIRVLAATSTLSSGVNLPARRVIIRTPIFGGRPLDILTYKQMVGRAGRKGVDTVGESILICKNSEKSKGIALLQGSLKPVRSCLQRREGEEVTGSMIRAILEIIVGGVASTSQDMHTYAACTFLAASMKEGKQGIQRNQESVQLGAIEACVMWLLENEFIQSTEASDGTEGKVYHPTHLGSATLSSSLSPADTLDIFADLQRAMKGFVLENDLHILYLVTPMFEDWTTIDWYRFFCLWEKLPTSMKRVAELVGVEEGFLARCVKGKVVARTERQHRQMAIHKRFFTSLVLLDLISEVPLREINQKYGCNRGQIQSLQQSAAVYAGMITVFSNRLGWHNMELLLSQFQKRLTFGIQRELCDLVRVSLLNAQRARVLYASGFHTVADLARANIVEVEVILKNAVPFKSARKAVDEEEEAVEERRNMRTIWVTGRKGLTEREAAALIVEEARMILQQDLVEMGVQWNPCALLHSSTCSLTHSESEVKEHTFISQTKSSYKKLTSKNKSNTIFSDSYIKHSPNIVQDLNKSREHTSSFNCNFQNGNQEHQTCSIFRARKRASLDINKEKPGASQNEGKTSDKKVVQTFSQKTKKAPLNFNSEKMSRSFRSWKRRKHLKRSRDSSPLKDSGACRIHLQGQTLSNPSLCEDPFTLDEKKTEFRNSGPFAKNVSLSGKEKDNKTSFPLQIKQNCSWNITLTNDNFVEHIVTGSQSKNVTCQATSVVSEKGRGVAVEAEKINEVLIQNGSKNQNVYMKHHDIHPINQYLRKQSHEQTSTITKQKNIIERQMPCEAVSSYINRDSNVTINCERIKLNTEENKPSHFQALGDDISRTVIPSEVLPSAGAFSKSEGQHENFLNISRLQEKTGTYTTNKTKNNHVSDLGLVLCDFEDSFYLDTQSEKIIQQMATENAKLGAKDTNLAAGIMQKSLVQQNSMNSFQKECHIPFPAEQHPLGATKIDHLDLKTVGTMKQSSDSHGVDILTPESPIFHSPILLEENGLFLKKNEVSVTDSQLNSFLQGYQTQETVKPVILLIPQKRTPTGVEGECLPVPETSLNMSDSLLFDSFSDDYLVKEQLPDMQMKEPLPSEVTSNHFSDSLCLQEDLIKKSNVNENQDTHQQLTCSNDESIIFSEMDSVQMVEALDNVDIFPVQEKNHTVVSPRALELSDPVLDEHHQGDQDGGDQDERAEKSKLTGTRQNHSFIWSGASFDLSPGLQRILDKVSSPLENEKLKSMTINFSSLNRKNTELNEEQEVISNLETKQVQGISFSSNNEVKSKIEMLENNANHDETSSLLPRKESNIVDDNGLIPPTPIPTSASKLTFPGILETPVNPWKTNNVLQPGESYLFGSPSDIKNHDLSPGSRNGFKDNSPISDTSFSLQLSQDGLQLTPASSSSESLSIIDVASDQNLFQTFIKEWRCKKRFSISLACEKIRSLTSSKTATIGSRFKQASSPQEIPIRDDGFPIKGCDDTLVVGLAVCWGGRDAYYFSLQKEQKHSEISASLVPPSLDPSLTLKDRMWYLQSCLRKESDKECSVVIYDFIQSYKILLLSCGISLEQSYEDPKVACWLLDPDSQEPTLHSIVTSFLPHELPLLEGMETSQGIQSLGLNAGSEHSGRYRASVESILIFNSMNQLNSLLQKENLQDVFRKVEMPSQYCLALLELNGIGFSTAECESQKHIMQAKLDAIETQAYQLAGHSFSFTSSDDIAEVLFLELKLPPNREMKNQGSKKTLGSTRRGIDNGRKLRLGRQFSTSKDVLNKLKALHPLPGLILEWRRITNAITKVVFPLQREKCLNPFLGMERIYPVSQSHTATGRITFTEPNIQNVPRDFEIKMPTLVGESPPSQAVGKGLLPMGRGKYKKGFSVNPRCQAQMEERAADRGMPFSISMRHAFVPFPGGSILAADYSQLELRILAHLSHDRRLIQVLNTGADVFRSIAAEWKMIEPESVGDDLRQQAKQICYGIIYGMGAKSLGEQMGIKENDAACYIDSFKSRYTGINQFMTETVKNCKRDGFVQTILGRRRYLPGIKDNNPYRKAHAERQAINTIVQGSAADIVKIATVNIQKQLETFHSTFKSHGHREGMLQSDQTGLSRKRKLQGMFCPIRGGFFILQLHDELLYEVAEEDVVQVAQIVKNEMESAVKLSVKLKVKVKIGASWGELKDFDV
CCCCN(Cc1ccc(C(=O)NO)cc1)C(=O)Nc1ccccc1: 98.5%
CCCCCCCCCCCCCCCCO: 99.6%
CC(c1cc2ccccc2s1)N(O)C(N)=O (stereo not shown): 97.8%
CC(=O)O[C@H]1C(=O)[C@@]2(C)[C@H]([C@H](OC(=O)c3ccccc3)[C@]3(O)C[C@H](OC(=O)[C@H](O)[C@@H](NC(=O)c4ccccc4)c4ccccc4)C(C)=C1C3(C)C)[C@]1(OC(C)=O)CO[C@@H]1C[C@@H]2O: 101% and 94.5%
CC1=C(/C=C/C(C)=C/C=C/C(C)=C/C(=O)O)C(C)(C)CCC1: 92% and 108%
Cn1c(=O)c2c(ncn2CC2OCCO2)n(C)c1=O: 96.2%
C[C@H](O)C(=O)Nc1c(I)c(C(=O)NC(CO)CO)c(I)c(C(=O)NC(CO)CO)c1I: 80.4%
CCOC(=O)[C@H](CCc1ccccc1)N[C@H]1CS[C@H](c2cccs2)CN(CC(=O)O)C1=O: 98.3%
CC(CN(C)C)CN1c2ccccc2Sc2ccccc21 (stereo not shown): 103%
CC(C)(Oc1ccc(Cl)cc1)C(=O)OCCOC(=O)c1cccnc1: 92.2%
Cc1c(-c2ccnn2C)cc(C(=O)NCc2ccc(S(C)(=O)=O)cn2)c(=O)n1-c1cccc(C(F)(F)F)c1: 102%
CN(C)C(=O)Nc1cccc(-c2ccc(N(C)C)cc2)c1: 79.3%
CC(C)(C)C(=O)OCOC(=O)[C@@H]1N2C(=O)[C@@H](NC(=O)[C@H](N)c3ccccc3)[C@H]2SC1(C)C: 102%
COc1ccc([C@@H]2CC(=O)c3c(O)cc(O[C@@H]4O[C@H](CO)[C@@H](O)[C@H](O)[C@H]4O[C@@H]4O[C@@H](C)[C@H](O)[C@@H](O)[C@H]4O)cc3O2)cc1O: 101%

Sample 4 — mode: inhibitor; quantity: inhibition
SMILES: Cc1nc(Nc2ncc(C(=O)Nc3c(C)cccc3Cl)s2)cc(N2CCN(CCO)CC2)n1
SRSF protein kinase 2 (SRPK2, Homo sapiens, UniProt P78362); 10 µM: < 50%
eIF-2-alpha kinase GCN2 (EIF2AK4, Homo sapiens, UniProt Q9P2K8, S808G); 10 µM: 86%
Phosphatidylinositol 4-phosphate 3-kinase C2 domain-containing subunit beta (PIK3C2B, Homo sapiens, UniProt O00750); 10 µM: < 50%
RAC-gamma serine/threonine-protein kinase (AKT3, Homo sapiens, UniProt Q9Y243); 10 µM: < 50%
Ribosomal protein S6 kinase alpha-4, C-terminal kinase domain (RPS6KA4, Homo sapiens, UniProt O75676); 10 µM: < 50%
Protein kinase C epsilon type (PRKCE, Homo sapiens, UniProt Q02156); 10 µM: < 50%
Myosin light chain kinase (MYLK3, Homo sapiens, UniProt Q32MK0); 1 µM: < 50%
Serine/threonine-protein kinase MRCK gamma (CDC42BPG, Homo sapiens, UniProt Q6DT37); 10 µM: 98%
Serine/threonine-protein kinase 25 (STK25, Homo sapiens, UniProt O00506); 10 µM: < 50%
Ephrin type-A receptor 7 (EPHA7, Homo sapiens, UniProt Q15375); 10 µM: < 50%
Activin receptor type-1B (ACVR1B, Homo sapiens, UniProt P36896); 10 µM: 97%
MAP kinase-activated protein kinase 5 (MAPKAPK5, Homo sapiens, UniProt Q8IW41); 10 µM: < 50%
Myosin-IIIb (MYO3B, Homo sapiens, UniProt Q8WXR4); 10 µM: < 50%
Serine/threonine-protein kinase 24 (STK24, Homo sapiens, UniProt Q9Y6E0); 10 µM: 66%
Mitogen-activated protein kinase kinase kinase 7 (MAP3K7, Homo sapiens, UniProt O43318); 10 µM: < 50%
Inhibitor of nuclear factor kappa-B kinase subunit alpha (CHUK, Homo sapiens, UniProt O15111); 10 µM: < 50%
Cyclin-dependent kinase 7 (CDK7, Homo sapiens, UniProt P50613); 1 µM: < 50%

Excerpt of the above (sample 1):
TGF-beta receptor type-2 (TGFBR2, Homo sapiens, UniProt P37173): 102%
Serine/threonine-protein kinase OSR1 (OXSR1, Homo sapiens, UniProt O95747): 119%
STE20/SPS1-related proline-alanine-rich protein kinase (STK39, Homo sapiens, UniProt Q9UEW8): 83.2%
Serine/threonine-protein kinase Nek2 (NEK2, Homo sapiens, UniProt P51955): 81.3%
Tyrosine-protein kinase Lyn, isoform B (LYN, Homo sapiens, UniProt P07948): 102%
Mitogen-activated protein kinase kinase kinase 3 (MAP3K3, Homo sapiens, UniProt Q99759): 83.7%
Serine/threonine-protein kinase STK11 (STK11, Homo sapiens, UniProt Q15831): 105%
Mitogen-activated protein kinase 9 (MAPK9, Homo sapiens, UniProt P45984): 88.4%
cGMP-dependent protein kinase 1, isoform beta (PRKG1, Homo sapiens, UniProt Q13976): 98.7%
Calcium/calmodulin-dependent protein kinase kinase 2 (CAMKK2, Homo sapiens, UniProt Q96RR4): 81.6%
Serine/threonine-protein kinase Chk2 (CHEK2, Homo sapiens, UniProt O96017): 102%
Death-associated protein kinase 2 (DAPK2, Homo sapiens, UniProt Q9UIK4): 95%
Protein kinase C beta type, isoform beta-I (PRKCB, Homo sapiens, UniProt P05771): 94.5%
